Published values collected from several papers.
Lines come from different studies, so protocols differ. ≈ marks a conversion by molar mass, not a printed value.
Organism: Mycolicibacterium smegmatis

CC(C)[C@H]1NC(=O)[C@H](Cc2ccccc2)NC(=O)[C@@H](C(C)C)NC(=O)[C@@H](C)NC(=O)[C@H](C)NC(=O)[C@@H](Cc2c(-c3ccc(-c4ccc(-c5ccccc5)cc4)cc3)[nH]c3ccccc23)NC(=O)[C@@H](CO)NC1=O  MIC90: > 100 µM
Cc1nc2ccc(Br)cn2c1C(=O)NCc1ccc2oc(-c3ccc(Cl)cc3)nc2c1  MIC90: > 100 µM
Cc1ccc2nc(C)c(C(=O)C(=O)NCc3ccccc3)n2c1  MIC (microbial growth, broth dilution): > 128 µM
CC(C)[C@H]1NC(=O)[C@H](Cc2ccccc2)NC(=O)[C@@H](C(C)C)NC(=O)[C@@H](C)NC(=O)[C@H](C)NC(=O)[C@@H](Cc2c(-c3ccc(-c4ccc5ccccc5c4)cc3)[nH]c3ccccc23)NC(=O)[C@@H](C)NC1=O  MIC90: 100 µM (≈ 94.7 µg/mL)
Cc1ccn2c(C(=O)NCc3ccccc3)c(C)nc2c1  MIC90: > 100 µM
CC(C)[C@H]1NC(=O)[C@H](Cc2ccccc2)NC(=O)[C@@H](C(C)C)NC(=O)[C@@H](C)NC(=O)[C@H](CO)NC(=O)[C@@H](Cc2c(-c3ccc(-c4ccccc4)c(F)c3)[nH]c3ccccc23)NC(=O)[C@@H](CO)NC1=O  MIC90: > 100 µM
Cc1ccc(CNC(=O)C(=O)c2c(C)nc3ccc(C)cn23)cc1  MIC (microbial growth, broth dilution): > 128 µM
CN[C@@H]1[C@H](O)[C@H](NC)[C@H]2O[C@]3(O)[C@H](O[C@@H]2[C@H]1O)O[C@H](C)C[C@H]3NC(=O)Cc1ccc(F)cn1  MIC: 12.5 to 25 µg/mL
CC(C)[C@H]1NC(=O)CNC(=O)[C@H](CO)NC(=O)[C@@H](Cc2c(-c3ccc(-c4ccc5ccccc5c4)cc3)[nH]c3ccccc23)NC(=O)[C@@H](CO)NC(=O)[C@@H](C(C)C)NC(=O)[C@H](Cc2ccccc2)NC1=O  MIC90: > 100 µM
CCc1nc2ccc(Cl)cn2c1C(=O)NCc1ccc2oc(-c3ccc(OC(F)(F)F)cc3)nc2c1  MIC90: > 100 µM
Cc1ccc(-c2nc3ccc(C)cn3c2C(=O)C(=O)NCc2ccc(N(C)C)cc2)cc1  inhibition zone (microbial growth; MC2155; 2 mM, 20 h): 0 mm
Cc1nc2ccc(C(F)(F)F)cn2c1C(=O)NCc1ccc2oc(-c3ccc(Cl)cc3)nc2c1  MIC90: > 100 µM
Cc1ccc2nc(C)c(C(=O)NCc3ccccc3)n2c1  MIC (microbial growth, broth dilution): > 128 µM
CC(C)[C@H]1NC(=O)[C@H](Cc2ccccc2)NC(=O)[C@@H](C(C)C)NC(=O)[C@@H](C)NC(=O)[C@H](CO)NC(=O)[C@@H](Cc2c(-c3ccc(-c4ccccc4)c4ccccc34)[nH]c3ccccc23)NC(=O)[C@@H](CO)NC1=O  MIC90: > 100 µM
Cc1ccc(CNC(=O)Cc2c(C)nc3ccc(C)cn23)cc1  inhibition zone (microbial growth; MC2155; 2 mM, 20 h): 20 mm
CC(C)[C@H]1NC(=O)[C@H](Cc2ccccc2)NC(=O)[C@@H](C(C)C)NC(=O)[C@@H](C)NC(=O)[C@H](CO)NC(=O)[C@@H](Cc2c(-c3ccc(-c4ccc(-c5ccccc5)cc4)cc3)[nH]c3ccccc23)NC(=O)[C@@H](C)NC1=O  MIC90: > 100 µM
CCc1ccn2c(C(=O)N(C)C)c(C)nc2c1  inhibition zone (microbial growth; MC2155; 2 mM, 20 h): 0 mm
CCc1nc2cc(Br)ccn2c1C(=O)NCc1ccc2oc(-c3ccc(OC(F)(F)F)cc3)nc2c1  MIC (72 h): > 25 µM
CC(C)[C@H]1NC(=O)[C@H](Cc2ccccc2)NC(=O)[C@@H](C(C)C)NC(=O)[C@@H](C)NC(=O)[C@H](C)NC(=O)[C@@H](Cc2c(-c3ccc(-c4ccc5ccccc5c4)cc3)[nH]c3ccccc23)NC(=O)[C@@H](CO)NC1=O  MIC90: > 100 µM
Cc1ccc2nc(C)c(C(=O)C(=O)N(C)C)n2c1  MIC (microbial growth, broth dilution): > 128 µM
CC(C)[C@H]1NC(=O)[C@H](Cc2ccccc2)NC(=O)[C@@H](C(C)C)NC(=O)[C@@H](C)NC(=O)[C@H](CO)NC(=O)[C@@H](Cc2c(-c3ccc(-c4ccc(-c5ccccc5)cc4)cc3)[nH]c3ccccc23)NC(=O)[C@@H](CO)NC1=O  MIC90: > 100 µM
Cc1nc2cc(C(F)(F)F)ccn2c1C(=O)NCc1ccc2oc(-c3ccc(Cl)cc3)nc2c1  MIC (72 h): > 100 µM
CCc1ccn2c(C(=O)NCc3ccccc3)c(C)nc2c1  inhibition zone (microbial growth; MC2155; 2 mM, 20 h): 0 mm
CCc1nc2ccc(OC(F)(F)F)cn2c1C(=O)NCc1ccc2oc(-c3ccc(Cl)cc3)nc2c1  MIC90: > 100 µM
NC1=NC2(CCCCC2)N(c2ccc(OCc3cn(CCCCOc4ccc5ccc(=O)oc5c4)nn3)cc2)C(N)=N1  MIC50 (microbial growth; ATCC700084 MC2155): 0.7 µM (≈ 0.399 µg/mL)

A few entries again:
CC(C)[C@H]1NC(=O)[C@H](Cc2ccccc2)NC(=O)[C@@H](C(C)C)NC(=O)[C@@H](C)NC(=O)[C@H](C)NC(=O)[C@@H](Cc2c(-c3ccc(-c4ccc5ccccc5c4)cc3)[nH]c3ccccc23)NC(=O)[C@@H](C)NC1=O  MIC90: 100 µM (≈ 94.7 µg/mL)
CC(C)[C@H]1NC(=O)CNC(=O)[C@H](CO)NC(=O)[C@@H](Cc2c(-c3ccc(-c4ccc5ccccc5c4)cc3)[nH]c3ccccc23)NC(=O)[C@@H](CO)NC(=O)[C@@H](C(C)C)NC(=O)[C@H](Cc2ccccc2)NC1=O  MIC90: > 100 µM
